Assay results gathered from unrelated publications.
Converted amounts (≈) assume the structure as drawn.

| SMILES | target or system | assay | test system | setting | scale | endpoint | result |
| --- | --- | --- | --- | --- | --- | --- | --- |
| CC(C)(O/N=C(\C(=O)N[C@@H]1C(=O)N(OS(=O)(=O)O)C1(C)C)c1nsc(N)n1)C(=O)O | Serratia marcescens | agar dilution | ATCC 21074, susceptible | – | – | MIC | 64 µg/mL (≈ 137 µM) |
| Cn1c(=O)c(-c2ccccc2Cl)cc2cnc(Nc3cccc(S(C)(=O)=O)c3)nc21 | Cryptosporidium hominis | parasite growth, high-content imaging | HCT-8 | – | – | EC50 | 160 nM |
| N=C(N)NCCC[C@@H]1NC(=O)[C@H](CCCNC(=N)N)NC(=O)[C@@H](CCCNC(=N)N)NC(=O)[C@@H](CCCNC(=N)N)NC(=O)[C@@H](C(c2ccccc2)c2ccccc2)NC(=O)[C@H](Cc2c[nH]c3ccccc23)NC(=O)[C@@H](C(c2ccccc2)c2ccccc2)NC1=O | Aspergillus fumigatus | XTT | Af 293 | 2 × MIC, 24 h, pre-formed biofilm | – | biofilm reduction | 69 to 73% |
| CNCc1ccc2c(c1)C[C@H](CNC(=N)N)[C@H]2NC(=O)C(=O)Nc1ccc(Cl)c(F)c1 | HIV-1 | viral infection | TZM-bl, CRF02_AG 263-8 Env pseudovirus | – | – | IC80 | 14.6 µM |
| CC1(C)[C@H](NC(=O)/C(=N\OC2(C(=O)O)CCCCC2)c2csc(N)n2)C(=O)N1OS(=O)(=O)O | Serratia marcescens | agar dilution | ATCC 21074, susceptible | – | – | MIC | 2 µg/mL (≈ 3.96 µM) |
| COC1C=COC2(C)Oc3c(C)c(O)c4c(c3C2=O)C2=NC3(CCN(CC(C)C)CC3)NC2=C(NC(=O)C(C)=CC=CC(C)C(O)C(C)C(O)C(C)C(OC(=O)Nc2cccnn2)C1C)C4=O (stereo not shown) | Mycobacteroides abscessus | bacterial growth | subsp. abscessus ATCC 19977 | – | – | IC90 | 42 nM |
| COc1ccccc1-c1n[nH]c2nc(NC3CCN(C(=O)Cc4ccc(F)cc4F)CC3)ncc12 | Leishmania donovani | parasite growth | – | amastigote | – | EC50 | 25.1 nM |
| COC1CN([C@H]2CC[C@H]([C@@]3(C)Oc4c(Cl)cc(C(=O)NCc5c(SC)cc(C)[nH]c5=O)c(C)c4O3)CC2)C1 | – | RNA-seq, refers to: CDC42BPA | human, whole blood | dose not given, 24 h | baseline: pretreatment baseline | log2 fold change | 1.05 |
| CN(Cc1ccc(C2(C(F)(F)F)CCC2)cc1)Cc1cccc2ccccc12 | Trichophyton rubrum | microbial growth, disc diffusion | ATCC28188 | 0.002 µg/mL, 6 days | – | inhibition zone | 4.75 mm |
| Cc1cc(C(=O)Nc2nc3cccc(C)c3n2[C@H]2CCCCN(C(=O)/C=C/CN(C)C)C2)ccn1 | Trypanosoma brucei brucei | – | Lister 427 | 5.56 µM, 0 h, kill kinetics | – | proliferation | 100% |
| FC(F)(F)c1cccc(CNc2nc(NC3CCN(Cc4ccccc4)CC3)c3nc[nH]c3n2)c1 | Cryptococcus neoformans | RNA-seq, refers to: SAC1 (CNAG_06080) mRNA | – | 48 µg/mL, 3 h | baseline: untreated wild type | log2 fold change | -0.444 |
| c1ccc2c(Cc3c[nH]c4ccccc34)c[nH]c2c1 | Parabacteroides distasonis | bacterial growth, inhibitor, OD600 | – | anaerobic | – | IC50 | > 50 µM |
| N=C(N)NCCC[C@@H]1NC(=O)[C@H](CCCNC(=N)N)NC(=O)[C@H](CCCNC(=N)N)NC(=O)[C@@H](CCCNC(=N)N)NC(=O)[C@H](Cc2ccc3ccccc3c2)NC(=O)[C@H](Cc2ccc3ccccc3c2)NC(=O)[C@H](Cc2ccc3ccccc3c2)NC1=O | Blastomyces dermatitidis | – | BD-3 | – | – | MIC | 4 µg/mL (≈ 3.29 µM) |
| COC1C=COC2(C)Oc3c(C)c(O)c4c(c3C2=O)C2=NC3(CCN(CC(C)C)CC3)NC2=C(NC(=O)C(C)=CC=CC(C)C(O)C(C)C(O)C(C)C(OC(=O)Nc2cnccn2)C1C)C4=O (stereo not shown) | Mycobacteroides abscessus | – | clinical isolates | 90% isolates inhibited | – | MIC90 | 310 µM (≈ 287 µg/mL) |
| CC(=O)C(C)(c1c[nH]c2ccccc12)c1c[nH]c2ccccc12 | Bacteroides fragilis | microbial growth, absorbance | – | – | – | IC50 | 38 µM |
| N=C(N)NCCC[C@@H]1NC(=O)[C@H](CCCNC(=N)N)NC(=O)[C@@H](CCCNC(=N)N)NC(=O)[C@H](C(c2ccccc2)c2ccccc2)NC(=O)[C@H](C(c2ccccc2)c2ccccc2)NC(=O)[C@H](C(c2ccccc2)c2ccccc2)NC(=O)[C@H](CCCNC(=N)N)NC1=O | Blastomyces dermatitidis | – | BD-2 | – | – | MIC | 1 µg/mL (≈ 0.772 µM) |
| C=C(NC(=O)c1csc(-c2nc3c(cc2O)-c2nc(cs2)C(=O)NC(C(C)O)C(=O)NC(=C(C)OC)c2nc(cs2)C(=O)NC2c4nc(cs4)C(=O)NC(COC(=O)c4c5c6c(cccc6n4O)COC(=O)C(OC4CC(C)(O)C(N(C)C)C(C)O4)C2OC5)c2nc-3cs2)n1)C(N)=O (stereo not shown) | Streptococcus pneumoniae | – | -4, immunocompromised mice, lung | 32 mg/kg/day once daily, 24 h post-dose | – | lung bacterial load | 4.15 log10 CFU/lung |
| Cc1ccccc1/C=C/C(=O)N[C@@H](CO)C(=O)N[C@H](C(=O)N[C@H](Cc1ccccc1)C(=O)O)[C@@H](C)O | Mycobacterium avium | resazurin microtitre | 104 | 4 days, 37 °C | – | MIC50 | inactive |
| CC(C)(C)NCC(SS(=O)(=O)O)c1ccccc1 (stereo not shown) | Schistosoma mansoni | – | infected mice | 600 mg/kg single, dosed day 1, perfusion day 44 | – | mean female worms recovered | 11.8 worms per mouse |
| CC(C)CC(c1c[nH]c2ccccc12)c1c[nH]c2ccccc12 | Parabacteroides distasonis | bacterial growth, inhibitor, OD600 | – | anaerobic | – | IC50 | > 50 µM |
| O=c1c(-c2nc3ccccc3s2)cc2c(n1NS(=O)(=O)c1ccccc1)CCCCCC2 | hepatitis C virus | qRT-PCR | Huh7.5, genotype 4 | concentration not given | – | viral load reduction | 0% |
| O=C1C(O)=C([C@H]2CC[C@H](c3ccc(Cl)cc3)CC2)C(=O)c2ccccc21 | Toxoplasma gondii | tachyzoite growth, luciferase | ME49-Fluc | – | – | EC50 | 99 nM |

For quick reference, copied from above:
| SMILES | target or system | assay | test system | setting | scale | endpoint | result |
| --- | --- | --- | --- | --- | --- | --- | --- |
| C=C(NC(=O)c1csc(-c2nc3c(cc2O)-c2nc(cs2)C(=O)NC(C(C)O)C(=O)NC(=C(C)OC)c2nc(cs2)C(=O)NC2c4nc(cs4)C(=O)NC(COC(=O)c4c5c6c(cccc6n4O)COC(=O)C(OC4CC(C)(O)C(N(C)C)C(C)O4)C2OC5)c2nc-3cs2)n1)C(N)=O (stereo not shown) | Streptococcus pneumoniae | – | -4, immunocompromised mice, lung | 32 mg/kg/day once daily, 24 h post-dose | – | lung bacterial load | 4.15 log10 CFU/lung |
| Cc1ccccc1/C=C/C(=O)N[C@@H](CO)C(=O)N[C@H](C(=O)N[C@H](Cc1ccccc1)C(=O)O)[C@@H](C)O | Mycobacterium avium | resazurin microtitre | 104 | 4 days, 37 °C | – | MIC50 | inactive |
